Assay results gathered from unrelated publications.
Numbered parts are unrelated; each lists some results of a single study.

Study 1
Target: Sox, HMG box (Pigoraptor chileana)
Technique: Spec-seq
Molecule type: double-stranded DNA, one strand shown
Sample: in vitro
Concentration: not given
Notes: whole probe, mean of replicates
Baseline: not given
Reading: lower = stronger binding
Shared flanks, not repeated: GAGTCGTCTCGTCAGCAC … CCGTAGAGCACTCAGGTC
Residues (chain): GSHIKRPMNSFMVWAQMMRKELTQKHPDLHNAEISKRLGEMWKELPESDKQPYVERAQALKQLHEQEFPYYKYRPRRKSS
| Strand | relative binding energy |
| --- | --- |
| CATCTAT | 0.167 ln ratio |
| TAGGGTT | 0.727 ln ratio |
| CATTGCA | 0.0499 ln ratio |
| TCGGGTT | 1.15 ln ratio |
| CATTTCC | 0.816 ln ratio |

Study 2
Target: Histone acetyltransferase KAT6A, winged helix 2, GST fusion (KAT6A, Homo sapiens, UniProt Q92794, residues 85-181)
Technique: protein binding microarray
Molecule type: double-stranded DNA, one strand shown
Sample: in vitro
Concentration: not given
Notes: 8-mer, flanks averaged, mean of 2 arrays, mostly near background
Baseline: not given
Reading: higher = stronger binding
Residues (chain): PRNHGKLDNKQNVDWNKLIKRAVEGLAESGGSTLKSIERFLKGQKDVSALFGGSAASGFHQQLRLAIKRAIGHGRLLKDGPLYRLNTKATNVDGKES
| Strand | E-score |
| --- | --- |
| CGTTAGTA | 0.112 |
| GATCCGTA | -0.0116 |
| ACTTGGCA | -0.08 |
| CGACCGCG | 0.225 |

Study 3
Target: Sal-like protein 4, full length isoform B (SALL4, Homo sapiens, UniProt Q9UJQ4-2, residues 1-616)
Technique: universal PBM
Molecule type: double-stranded DNA, one strand shown
Sample: in vitro
Concentration: not given
Notes: 8-mer, flanks averaged, mean of replicates
Reading: higher = stronger binding
Construct (chain): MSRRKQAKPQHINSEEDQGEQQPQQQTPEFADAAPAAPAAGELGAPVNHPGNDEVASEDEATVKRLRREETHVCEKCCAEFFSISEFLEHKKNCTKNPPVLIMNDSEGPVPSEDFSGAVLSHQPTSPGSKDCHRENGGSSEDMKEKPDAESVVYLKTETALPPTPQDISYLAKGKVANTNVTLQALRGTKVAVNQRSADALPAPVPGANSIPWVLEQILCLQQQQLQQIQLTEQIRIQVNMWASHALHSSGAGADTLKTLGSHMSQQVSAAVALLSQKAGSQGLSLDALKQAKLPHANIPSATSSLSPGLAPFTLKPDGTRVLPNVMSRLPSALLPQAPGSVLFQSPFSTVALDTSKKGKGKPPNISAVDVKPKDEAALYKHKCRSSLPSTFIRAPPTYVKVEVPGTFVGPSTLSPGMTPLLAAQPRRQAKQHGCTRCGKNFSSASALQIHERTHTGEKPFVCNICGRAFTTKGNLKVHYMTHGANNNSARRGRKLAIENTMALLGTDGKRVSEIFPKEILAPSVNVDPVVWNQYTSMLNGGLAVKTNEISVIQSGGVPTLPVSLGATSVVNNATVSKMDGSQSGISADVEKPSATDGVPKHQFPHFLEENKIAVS
| Strand | E-score |
| --- | --- |
| ATTTGTAC | 0.239 |
| ACTAGTCG | -0.0624 |
| AAAAGTTT | 0.164 |
| ACTCTTCC | 0.0233 |
| GATCGAGC | -0.143 |

Other studies, line by line
| Substance | target | assay | system | conditions | scale | quantity | value |
| --- | --- | --- | --- | --- | --- | --- | --- |
| PhoQ, residues 284 288 289 292 302 303 AEGLLW | PhoP, residues 12 14 15 18 19 SPWRL (Escherichia coli, UniProt P23836) | Sort-seq, refers to: YFP reporter | E. coli | PhoQ-PhoP variant library, with: 10 µM Mg2+ | baseline: high Mg2+ state, higher = stronger signaling | fold induction | 0.704 |

Some of these lines once more (study 2):
| Strand | E-score |
| --- | --- |
| GATCCGTA | -0.0116 |
| CGTTAGTA | 0.112 |
